Published values collected from several papers.
Each numbered part is a random draw from the data of one study; scales do not carry over between parts. Changes are numbered by the printed parent chain.

Set 1
Target: NFE2L1, bZIP domain (human)
Technique: DHFR protein complementation
Matrix: yeast
Notes: single substitutions, most at no-binding floor
Relative to: wild-type JUN-FOS pair
Reading: higher = stronger binding
Endpoint: binding fitness
Parent: JUN, bZIP domain (human); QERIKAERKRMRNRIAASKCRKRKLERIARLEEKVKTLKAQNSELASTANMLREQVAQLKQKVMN; partner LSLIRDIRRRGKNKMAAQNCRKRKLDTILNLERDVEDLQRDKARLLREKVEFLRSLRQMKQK
S47Y: -1.51 natural log
Q55M: -1.52 natural log
S47L: -1.51 natural log
T37V: -1.26 natural log
K39H: -1.43 natural log
A49C: -1.55 natural log
E44H: -1.36 natural log
Q55K: -1.48 natural log
L45C: -1.44 natural log
L59R: -1.55 natural log
E54R: -1.47 natural log
L38K: -1.57 natural log
Q41S: -1.56 natural log
S43C: -1.21 natural log
L59W: -1.5 natural log
Q41F: -1.44 natural log
R53H: -1.52 natural log
A40V: -1.49 natural log
L31M: -1.53 natural log
M51W: -1.48 natural log
Q41K: -1.45 natural log
R30S: -1.47 natural log
L45Q: -1.53 natural log

Set 2
Target: UBE2G1 UBC core domain (UniProt P62253)
Technique: yeast two-hybrid
Matrix: yeast
Notes: mostly zero background
Relative to: not given
Reading: higher = stronger interaction
Endpoint: lacZ reporter activity
B1: TRIM24 RING domain (UniProt O15164); chain EAARLNLLDTCAVCHQNIQSRAPKLLPCLHSFCQRCLPAPQRYLMLPAPMLGSAETPPPVPAPGSPVSGSSPFATQVGVIRCPVCSQECAERHII
B2: TRIML1 RING domain (UniProt Q8N9V2); chain LMENLREELTCFICLDYFSSPVTTECGHSFCLVCLLRSWEEHNTPLSCPECWRTLEGPHFQS
B3: TRIM4 RING domain (UniProt Q9C037); chain EAEDIQEELTCPICLDYFQDPVSIECGHNFCRGCLHRNWAPGGGPFPCPECRHPSAPAALRP
B4: SH3RF2 RING domain (UniProt Q8TEC5); chain DDLTLLDLLECPVCFEKLDVTAKVLPCQHTFCKPCLQRVFKAHKELRCPECRTPVFSNIEAL
B5: RNF208 RING domain (UniProt Q9H0X6); chain SSAAAGEPLECPTCGHSYNVTQRRPRVLSCLHSVCEQCLQILYESCPKYKFISCPTCRRETVLFTDYG
B6: TRIM13 RING domain (UniProt O60858); chain MELLEEDLTCPICCSLFDDPRVLPCSHNFCKKCLEGILEGSVRNSLWRPAPFKCPTCRKETSATGINS
B7: NEURL1 RING domain (UniProt O76050); chain VTPGLGQWSDECTICYEHAVDTVIYTCGHMCLCYACGLRLKKALHACCPICRRPIKDIIKT
B8: TRIM5 RING domain (UniProt Q9C035); chain LREVKLSPEGQKVDHCARHGEKLLLFCQEDGKVICWLCERSQEHRGHHTFLTEEVAREYQVKL
B9: MKRN1 RING domain (UniProt Q9UHC7); chain FAVQRSKDMVCGICMEVVYEKANPSERRFGILSNCNHTYCLKCIRKWRSAKQFESKIIKSCPECRITSNFVIPSE
Construct (chain): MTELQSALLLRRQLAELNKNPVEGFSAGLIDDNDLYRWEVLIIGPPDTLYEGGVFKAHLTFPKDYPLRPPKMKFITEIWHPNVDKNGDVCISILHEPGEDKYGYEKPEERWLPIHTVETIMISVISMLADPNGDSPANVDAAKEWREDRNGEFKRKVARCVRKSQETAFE
B1 (TRIM24 RING domain): 0
B2 (TRIML1 RING domain): 0
DHGAVGQEMCCPICCSEYVKGEVATELPCHHYFHKPCVSIWLQKSGTCPVCRCMFPPPL (PJA1 RING domain (UniProt Q8NG27)): 0
B3 (TRIM4 RING domain): 0
VEPSEENSKDCVVCQNGTVNWVLLPCRHTCLCDGCVKYFQQCPMCRQFVQESFALC (CGRRF1 RING domain (UniProt Q99675)): 0
B4 (SH3RF2 RING domain): 0
B5 (RNF208 RING domain): 0
PAELEVQASECVVCLEREAQMIFLNCGHVCCCQQCCQPLRTCPLCRQDIAQRLRIY (LRSAM1 RING domain (UniProt Q6UWE0)): 0
B6 (TRIM13 RING domain): 0
B7 (NEURL1 RING domain): 0
FQGDVDEDLICPICSGVLEEPVQAPHCEHAFCNACITQWFSQQQTCPVDRSVVTVAHLRP (RNF41 RING domain (UniProt Q9H4P4)): 0
B8 (TRIM5 RING domain): 0
B9 (MKRN1 RING domain): 0

Set 3
Target: ABI1, truncated, D143A, DHFR fusion (Arabidopsis thaliana, UniProt P49597)
Technique: DHFR PCA, dose-response
Matrix: yeast
Notes: Hill fit, mean, not affinity
Together with: (+)-ABA, dose series
Reading: lower = more sensitive
Endpoint: ABA EC50
Parent: PYL1, truncated, DHFR fusion (Arabidopsis thaliana, UniProt Q8VZS8); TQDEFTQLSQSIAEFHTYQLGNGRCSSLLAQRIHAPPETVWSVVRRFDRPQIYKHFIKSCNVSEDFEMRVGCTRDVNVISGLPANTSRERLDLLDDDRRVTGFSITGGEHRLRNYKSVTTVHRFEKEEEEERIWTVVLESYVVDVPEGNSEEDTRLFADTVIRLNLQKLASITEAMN
T101G: 273 µM
T39N: 5.89 µM
V145S: 71.5 µM
Q19M: 4.7 µM
E130G: 2.63 µM
P36Q: 8.91 µM
V142M: 3.79 µM
H122V: 165 µM
R90M: 12.1 µM
V100L: 16.7 µM
V43C: 25.3 µM
D95A: 120 µM
Y18G: 23.4 µM
V100Y: 96.7 µM
T173F: 16.1 µM
T135C: 3.26 µM
S42L: 15.6 µM
V76H: 677 µM
L93E: 12.7 µM
S171H: 1.48 µM
Q10W: 8.75 µM
T106H: 13 µM
S63M: 3.98 µM
R90Q: 5.29 µM
T73F: 2.13 µM

Set 4
Target: CCND2, cyclin fold, Cln2 fusion (human)
Technique: yeast growth competition, sequencing
Matrix: yeast
Notes: weak parent motif
Relative to: not given
Reading: higher = stronger binding
Endpoint: normalised enrichment score
Parent: MASTL docking peptide (human); PMIAKNLMCELDE; partner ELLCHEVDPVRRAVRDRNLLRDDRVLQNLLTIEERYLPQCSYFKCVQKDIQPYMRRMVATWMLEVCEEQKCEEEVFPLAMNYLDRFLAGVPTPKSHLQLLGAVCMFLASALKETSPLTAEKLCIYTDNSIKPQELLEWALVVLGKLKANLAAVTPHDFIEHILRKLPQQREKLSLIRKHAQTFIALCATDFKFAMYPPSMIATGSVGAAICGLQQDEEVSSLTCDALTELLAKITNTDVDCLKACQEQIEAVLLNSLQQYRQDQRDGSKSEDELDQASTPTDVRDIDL
K5M: 0.226
A4N: 0.368
I3T: 0.0782
C9H: -0.158
L11V: 0.0559
M2Q: 0.165
C9W: -0.321
L11A: 0.0374
A4G: -0.314
L7W: 0.144
E10C: 0.0407
M8R: 0.168
E10N: 0.204
L7C: 0.266
L11S: 0.346
D12K: 0.233
M8G: -0.00788
A4F: 0.027
L7A: -0.0296
E10W: 0.0929
A4V: 0.104
K5F: -0.0221

Set 5
Target: Centromere-binding protein 1, full length, His-tagged (CBF1, Saccharomyces cerevisiae, UniProt P17106, residues 1-351)
UniProt P17106, sequence (whole entry, looked up): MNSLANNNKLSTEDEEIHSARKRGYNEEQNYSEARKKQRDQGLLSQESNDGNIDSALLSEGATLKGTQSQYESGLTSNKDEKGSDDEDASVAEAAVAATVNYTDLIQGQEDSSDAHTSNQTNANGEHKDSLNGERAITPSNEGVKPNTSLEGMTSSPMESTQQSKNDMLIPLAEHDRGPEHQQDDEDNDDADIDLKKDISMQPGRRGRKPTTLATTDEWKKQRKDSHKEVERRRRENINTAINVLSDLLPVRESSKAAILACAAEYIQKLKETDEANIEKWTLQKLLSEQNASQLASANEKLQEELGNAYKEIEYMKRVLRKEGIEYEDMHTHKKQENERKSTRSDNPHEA
Technique: competition protein-binding microarray
Form: double-stranded DNA, one strand shown
Matrix: in vitro
Tested at: 2 µM
Notes: whole 60-bp probe, lowest competitor level
Together with: Pho4 competitor, 0.05 µM
Reading: higher = stronger binding
Endpoint: fluorescence intensity
CGGGGTTAAGTTTGGGTAGTGGGTGGCTTGCAGCAGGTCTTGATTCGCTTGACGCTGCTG: 58.1 a.u.
CACAATTGGTGGTGGACCGTGACGGACACCCAAAGCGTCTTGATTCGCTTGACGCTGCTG: 88.3 a.u.
CAATTTCATATTCACCACGTGCCGAACTTTGGGATGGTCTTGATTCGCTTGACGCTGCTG: 2470 a.u.
GAAGAGGAGTCTTTGCACGTGTTTCAGTATGCTAATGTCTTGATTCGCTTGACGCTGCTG: 1610 a.u.
CGACAGCTGCACCATCACGTGCCGATTGTCCTTATTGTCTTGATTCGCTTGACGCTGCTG: 3390 a.u.
TTTTCGATTTTCTGGCACGATGCTGACTTAGTACTAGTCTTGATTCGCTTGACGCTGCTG: 85.5 a.u.
GTCTTGTCTCATTGAAGCGTGGGTGTCCCCACTTCAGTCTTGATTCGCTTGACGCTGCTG: 78.8 a.u.
GACGATGATAAACAGCACGATGTTTCCCCCGGCGGCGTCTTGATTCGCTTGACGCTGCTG: 78.7 a.u.
GATACACTTCCAGGGAACGTGATGGAAATGATCTTCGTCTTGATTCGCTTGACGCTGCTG: 265 a.u.
GAAATAAAAGTACCTTCCGTGATGGTCTTGGTACCAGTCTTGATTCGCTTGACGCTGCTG: 55.7 a.u.
CTGTAAGATAAGGGACATGTGGCCTGGGAACTCCTGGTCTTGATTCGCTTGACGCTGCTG: 105 a.u.
GTCTGCCGTTTGTTACATGTGGATGTGTTACTGAGTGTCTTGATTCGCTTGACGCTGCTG: 112 a.u.
AAAGCGGTAATTTGGCTTGTGGGTGCAGATATCTATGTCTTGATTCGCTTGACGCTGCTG: 67.7 a.u.
CTAACGAAGGTTTGTCACAGCACTTACAAGCCAAGTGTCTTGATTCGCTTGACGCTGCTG: 59.6 a.u.
AATTGTGCCAAAAATCACCTGTTATGGCTGACTTGAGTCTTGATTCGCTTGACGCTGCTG: 133 a.u.
CTTTCCCGATCTTGGAGAGTGGGTGTAGCACATTTGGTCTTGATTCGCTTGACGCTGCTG: 63.3 a.u.
CAATAATATCATAATCATATGACGGTTCTTCGTCAAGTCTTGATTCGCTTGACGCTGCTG: 224 a.u.

For quick reference, copied from above (set 1):
A49C: -1.55 natural log
E44H: -1.36 natural log
Q55K: -1.48 natural log
L45C: -1.44 natural log
L59R: -1.55 natural log
E54R: -1.47 natural log
L38K: -1.57 natural log
Q41S: -1.56 natural log
S43C: -1.21 natural log
L59W: -1.5 natural log
Q41F: -1.44 natural log
R53H: -1.52 natural log
A40V: -1.49 natural log
L31M: -1.53 natural log
M51W: -1.48 natural log
Q41K: -1.45 natural log
